Experimental data of several laboratories.
Each line is one published result; not all experiments were run side by side. ± gives the spread as reported.
UCHL1: Ubiquitin carboxyl-terminal hydrolase isozyme L1 (UCHL1, Homo sapiens, UniProt P09936)
UniProt P09936, sequence (whole entry, looked up): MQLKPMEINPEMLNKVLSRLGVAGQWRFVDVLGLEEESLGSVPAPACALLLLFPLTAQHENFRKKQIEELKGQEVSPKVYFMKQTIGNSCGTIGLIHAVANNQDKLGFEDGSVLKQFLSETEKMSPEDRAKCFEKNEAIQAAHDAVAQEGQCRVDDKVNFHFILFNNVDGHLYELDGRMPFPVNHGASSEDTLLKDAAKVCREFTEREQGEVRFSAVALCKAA

`CN(C)CCOc1ccc(-c2nc(-c3ccncc3)c(-c3ccc4c(c3)CC/C4=N\O)[nH]2)cc1` has a pTC50 of 6.1 (HepG2; cytotoxicity; PKIS HTS).
With `CC(=O)Nc1cc(Oc2ccc3c(c2)nc(Nc2ccc(F)cc2F)n3C)ccn1` the EC50 was 0.9 ± 0.3 µM (HepG2; cytotoxicity; 48 h).
With `CCOCC(=O)N1CCC[C@H](C(=O)NCc2nc(-c3ccc(C#N)cc3)cs2)C1` the CC50 was > 50 µM (HepG2; CellTiter-Glo; 96 h).
`NCC(=O)CCC(=O)O` has a CC50 of > 1000 µM (HepG2; ATPlite; 18 to 24 h, with: deferoxamine).
For `COc1cc(C=C(C#N)C(=O)Nc2ccc3c(c2)OCCO3)ccc1O`, the labelling was 14.9% (UCHL1; covalent, intact protein LC-MS; 12.5 µM).
`O=[N+]([O-])c1ccc2[nH]c(CNCC34CC5CC(CC(C5)C3)C4)nc2c1` has a CC50 of 42 ± 4.8 µg/mL (HepG2).
With `[131I-].[Na+]` the cell retention was 1.26 ± 0.35% (HepG2; 7 µCi/well, 24 h).
With `CN1CCC(C(=O)Nc2n[nH]c3nc(-c4ccc(O)cc4)c(Br)cc23)CC1.O=C(O)/C=C\C(=O)O` the pTC50 was 5.5 (HepG2; cytotoxicity; PKIS HTS).
`CC(=O)Oc1ccccc1C(=O)O` gave a CC50 of > 1000 µM (HepG2; ATPlite; 18 to 24 h, with: deferoxamine).
With `CC(=O)Nc1cc(Oc2ccc3nc(Nc4ccc(F)cc4F)n(C)c3c2)ccn1` the EC50 was > 20 µM (HepG2; cytotoxicity; 48 h).
The TC50 of `Cc1ccc(Nc2cnnc3ccc(-c4ccc(N5CCCN(C)CC5)cc4)cc23)cn1` is reported as > 24 µM (HepG2; cytotoxicity).
`CCN1CCN(Cc2ccc(Nc3nc4ccc(Oc5ccnc(NC(=O)C6CCN(C)CC6)c5)cc4n3C)cc2C(F)(F)F)CC1` gave an EC50 of 4.8 ± 0.7 µM (HepG2; cytotoxicity; 48 h).
`COc1ccc(Nc2cnnc3cc(-c4cnc(N5CCN(C)CC5)nc4)ccc23)cc1Cl` gave a TC50 of > 2.2 µM (HepG2; cytotoxicity).
`O=C(O)/C=C/c1ccccc1` has a viability of > 90% (HepG2; MTT; 3.1 to 50 µg/mL, 48 h, 10% FBS).
`CCN(CC)c1ccc(CNc2nn[nH]n2)cc1` gave an IC50 of > 56 µM (HepG2; cytotoxicity, CellTiter-Glo; 3 days).
For `Cc1cc(C)c(C=C(C#N)C(=O)Nc2nccs2)cc1C`, the labelling was 16.2% (UCHL1; covalent, intact protein LC-MS; 12.5 µM).
With `CCN1CCN(Cc2ccc(Nc3nc4nc(Oc5ccnc(NC(C)=O)c5)ncc4[nH]3)cc2C(F)(F)F)CC1` the EC50 was > 20 µM (HepG2; cytotoxicity; 48 h).
`COc1ccc(Nc2cnnc3cc(-c4ccc(S(=O)(=O)N5CCN(C)CC5)cc4)ccc23)cc1Cl` has a TC50 of > 1.9 µM (HepG2; cytotoxicity).
`COc1cc(C(=O)NS(=O)(=O)c2ccccc2C)ccc1Cc1cn(C)c2ccc(NC(=O)OC3CCCC3)cc12` — result for “highest non-cytotoxic concentration”: > 128 µM (HepG2; cytotoxicity, resazurin; 24 h).
For `Cc1ccc(Nc2cnnc3ccc(-c4ccc(N5CCN(C)CC5)cc4)cc23)cn1`, the TC50 was > 24 µM (HepG2; cytotoxicity).
The IC50 of `CCS(=O)(=O)Nc1ccc(C(=O)NC2CC3CCC2C3)cc1` (stereo not shown) is reported as > 56 µM (HepG2; cytotoxicity, CellTiter-Glo; 3 days).
`CCN1CCN(Cc2ccc(Nc3nc4ccc(Oc5ccnc(NC(=O)C6CCN(C)CC6)c5)cc4[nH]3)cc2C(F)(F)F)CC1` gave an EC50 of 8.4 ± 1.2 µM (HepG2; cytotoxicity; 48 h).
`CC(=O)OC[C@H]1O[C@@H]([S-])[C@H](OC(C)=O)[C@@H](OC(C)=O)[C@@H]1OC(C)=O.CCP(CC)CC.[Au+]` has a selectivity index of 4 (HepG2; 72 h; relative to: HepG2 CC50 over EC50).
`O=c1c(O)c(-c2ccc(O)c(O)c2)oc2cc(O)cc(O)c12` — result for “highest non-cytotoxic concentration”: > 200 µM (HepG2; viability, CellTiter-Glo).
For `CCCCCCNc1nc(NC2CCN(C)CC2)c2cc(OC)c(OC)cc2n1`, the selectivity index was 1 (HepG2; 72 h; relative to: HepG2 CC50 over EC50).
For `CC(C)c1ccc(NC(=O)CCc2nc(O)c3c4c(sc3n2)CCC4)cc1`, the IC50 was > 56 µM (HepG2; cytotoxicity, CellTiter-Glo; 3 days).
`COc1cc(-c2oc3cc(O)cc(O)c3c(=O)c2O[C@@H]2O[C@H](CO)[C@@H](O)[C@H](O)[C@H]2O)ccc1O` — result for “highest non-cytotoxic concentration”: > 200 µM (HepG2; CellTiter-Glo).
`O=C(Cn1ccnc1[N+](=O)[O-])NCc1ccccc1` has a TC50 of > 200 µM (HepG2; Alamar Blue; 48 h).
The EC50 of `CCN1CCN(Cc2ccc(Nc3nc4ccc(Oc5ccnc(NC(=O)CCN(C)C)c5)cc4n3C)cc2C(F)(F)F)CC1` is reported as 4.7 ± 0.6 µM (HepG2; cytotoxicity; 48 h).
`COc1cnc(Nc2cnnc3ccc(-c4ccc(N5CCN(C)CC5)cc4)cc23)nc1` gave a TC50 of > 4.7 µM (HepG2; cytotoxicity).
`O=C1C(O)=C([C@H]2CC[C@H](c3ccc(Cl)cc3)CC2)C(=O)c2ccccc21` has a selectivity index of 62 (HepG2; 72 h; relative to: HepG2 CC50 over EC50).
For `COC(=O)N[C@H](C(=O)N1CC2(CC2)C[C@H]1c1ncc(-c2ccc3c(c2)C(F)(F)c2cc(-c4ccc5nc([C@@H]6[C@H]7CC[C@H](C7)N6C(=O)[C@@H](NC(=O)OC)C(C)C)[nH]c5c4)ccc2-3)[nH]1)C(C)C`, the TC50 was > 25 µM (HepG2; Alamar Blue; 48 h).
For `Cc1ccc(NC(=O)N2CCN(c3ccccc3F)CC2)c(C)c1`, the IC50 was > 56 µM (HepG2; cytotoxicity, CellTiter-Glo; 3 days).
`CN(c1ccccc1C(=O)Nc1ccc(S(=O)(=O)N2CCN(c3cc(C(F)(F)F)cc(Cl)n3)CC2)cc1)S(C)(=O)=O`: viability “no effect” (HepG2; 100 µM, 24 h).
